Assay results gathered from unrelated publications.
Each numbered part is a random draw from the data of one study; scales do not carry over between parts. “And” joins repeats or separate records; there may be more than shown.
UniProt P15056, sequence (whole entry, looked up): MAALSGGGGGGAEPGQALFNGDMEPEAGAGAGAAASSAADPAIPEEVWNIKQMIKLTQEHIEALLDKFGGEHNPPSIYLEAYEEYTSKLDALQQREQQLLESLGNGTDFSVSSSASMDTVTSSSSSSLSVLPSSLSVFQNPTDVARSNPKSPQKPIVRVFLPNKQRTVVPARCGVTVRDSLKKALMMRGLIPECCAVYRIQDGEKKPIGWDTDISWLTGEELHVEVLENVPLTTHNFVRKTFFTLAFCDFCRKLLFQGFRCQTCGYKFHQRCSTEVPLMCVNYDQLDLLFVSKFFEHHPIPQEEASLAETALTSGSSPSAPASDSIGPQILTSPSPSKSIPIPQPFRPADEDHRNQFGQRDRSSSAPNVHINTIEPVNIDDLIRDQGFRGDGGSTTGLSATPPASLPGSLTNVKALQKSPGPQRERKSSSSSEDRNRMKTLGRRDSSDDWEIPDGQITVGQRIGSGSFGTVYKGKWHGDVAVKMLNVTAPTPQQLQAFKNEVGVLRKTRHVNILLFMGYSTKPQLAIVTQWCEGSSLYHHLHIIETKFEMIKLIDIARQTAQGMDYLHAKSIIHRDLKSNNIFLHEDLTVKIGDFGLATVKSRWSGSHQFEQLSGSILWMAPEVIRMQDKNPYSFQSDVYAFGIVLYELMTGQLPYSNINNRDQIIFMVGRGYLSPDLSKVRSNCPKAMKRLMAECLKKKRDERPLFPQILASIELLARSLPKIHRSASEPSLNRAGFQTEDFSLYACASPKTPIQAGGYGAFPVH
UniProt Q6P2M8, sequence (whole entry, looked up): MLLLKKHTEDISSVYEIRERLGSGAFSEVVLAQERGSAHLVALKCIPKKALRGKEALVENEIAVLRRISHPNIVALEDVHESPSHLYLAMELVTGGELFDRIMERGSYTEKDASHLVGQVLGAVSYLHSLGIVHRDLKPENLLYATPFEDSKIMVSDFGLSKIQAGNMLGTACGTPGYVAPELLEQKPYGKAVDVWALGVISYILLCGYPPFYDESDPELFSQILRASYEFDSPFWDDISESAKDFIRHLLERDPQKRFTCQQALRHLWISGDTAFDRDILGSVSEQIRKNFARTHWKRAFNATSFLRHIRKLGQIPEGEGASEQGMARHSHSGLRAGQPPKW
UniProt P31152, sequence (whole entry, looked up): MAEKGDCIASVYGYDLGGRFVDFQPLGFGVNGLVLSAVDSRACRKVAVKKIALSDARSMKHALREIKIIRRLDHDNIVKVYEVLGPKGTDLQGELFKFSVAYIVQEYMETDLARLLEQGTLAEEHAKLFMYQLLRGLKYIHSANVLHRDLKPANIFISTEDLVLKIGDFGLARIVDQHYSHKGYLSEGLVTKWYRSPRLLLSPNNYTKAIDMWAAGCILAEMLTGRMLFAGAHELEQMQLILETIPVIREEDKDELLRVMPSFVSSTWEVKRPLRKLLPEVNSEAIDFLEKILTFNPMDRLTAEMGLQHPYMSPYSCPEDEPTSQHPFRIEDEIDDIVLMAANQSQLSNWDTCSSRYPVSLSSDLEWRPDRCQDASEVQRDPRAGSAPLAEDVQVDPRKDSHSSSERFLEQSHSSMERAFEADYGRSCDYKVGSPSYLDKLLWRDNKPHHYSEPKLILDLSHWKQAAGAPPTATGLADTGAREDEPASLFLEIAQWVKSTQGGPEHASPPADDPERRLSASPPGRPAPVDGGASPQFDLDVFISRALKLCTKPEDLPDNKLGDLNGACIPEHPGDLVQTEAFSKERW
UniProt P07949, sequence (whole entry, unmodified, looked up): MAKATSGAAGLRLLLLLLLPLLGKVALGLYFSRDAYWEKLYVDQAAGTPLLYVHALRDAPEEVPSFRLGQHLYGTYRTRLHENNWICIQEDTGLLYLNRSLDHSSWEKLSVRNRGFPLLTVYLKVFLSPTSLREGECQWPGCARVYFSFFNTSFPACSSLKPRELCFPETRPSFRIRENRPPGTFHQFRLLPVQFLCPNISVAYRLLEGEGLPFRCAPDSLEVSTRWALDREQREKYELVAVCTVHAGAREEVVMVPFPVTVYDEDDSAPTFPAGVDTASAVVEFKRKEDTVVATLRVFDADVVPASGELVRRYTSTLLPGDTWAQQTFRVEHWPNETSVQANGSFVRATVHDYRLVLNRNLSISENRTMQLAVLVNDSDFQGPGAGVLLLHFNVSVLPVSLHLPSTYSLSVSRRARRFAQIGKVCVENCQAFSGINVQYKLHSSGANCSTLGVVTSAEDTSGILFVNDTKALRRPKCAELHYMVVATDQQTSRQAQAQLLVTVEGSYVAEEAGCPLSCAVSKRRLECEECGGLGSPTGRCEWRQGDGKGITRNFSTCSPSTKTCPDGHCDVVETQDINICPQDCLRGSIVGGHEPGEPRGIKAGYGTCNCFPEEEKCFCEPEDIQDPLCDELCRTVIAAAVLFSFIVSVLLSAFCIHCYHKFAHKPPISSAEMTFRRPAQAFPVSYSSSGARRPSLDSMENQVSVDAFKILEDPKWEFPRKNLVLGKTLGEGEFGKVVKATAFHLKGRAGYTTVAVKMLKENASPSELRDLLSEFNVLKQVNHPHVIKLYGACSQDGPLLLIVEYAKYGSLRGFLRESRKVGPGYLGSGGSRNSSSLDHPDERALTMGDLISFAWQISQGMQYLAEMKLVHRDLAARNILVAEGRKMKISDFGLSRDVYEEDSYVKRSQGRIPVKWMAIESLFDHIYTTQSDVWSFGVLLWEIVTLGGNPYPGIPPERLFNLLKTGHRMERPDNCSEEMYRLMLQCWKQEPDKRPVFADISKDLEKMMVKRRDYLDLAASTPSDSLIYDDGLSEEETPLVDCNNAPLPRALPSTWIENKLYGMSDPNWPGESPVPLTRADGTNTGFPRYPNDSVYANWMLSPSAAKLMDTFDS
UniProt Q9UPE1, sequence (whole entry, looked up): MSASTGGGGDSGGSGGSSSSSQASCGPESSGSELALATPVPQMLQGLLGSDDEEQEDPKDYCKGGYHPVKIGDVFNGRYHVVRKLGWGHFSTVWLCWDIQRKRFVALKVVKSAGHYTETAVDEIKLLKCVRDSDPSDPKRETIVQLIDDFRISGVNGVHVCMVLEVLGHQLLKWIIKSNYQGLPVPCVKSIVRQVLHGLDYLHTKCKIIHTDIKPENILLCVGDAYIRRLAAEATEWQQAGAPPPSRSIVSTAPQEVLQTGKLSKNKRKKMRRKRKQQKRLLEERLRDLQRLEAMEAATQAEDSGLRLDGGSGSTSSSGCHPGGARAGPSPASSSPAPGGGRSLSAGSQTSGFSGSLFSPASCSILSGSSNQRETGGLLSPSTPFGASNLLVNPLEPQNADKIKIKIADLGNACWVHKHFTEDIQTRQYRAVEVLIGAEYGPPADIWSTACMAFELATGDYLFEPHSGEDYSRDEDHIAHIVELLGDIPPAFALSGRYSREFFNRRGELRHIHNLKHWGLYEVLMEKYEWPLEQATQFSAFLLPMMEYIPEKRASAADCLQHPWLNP
UniProt P42338, sequence (whole entry, looked up): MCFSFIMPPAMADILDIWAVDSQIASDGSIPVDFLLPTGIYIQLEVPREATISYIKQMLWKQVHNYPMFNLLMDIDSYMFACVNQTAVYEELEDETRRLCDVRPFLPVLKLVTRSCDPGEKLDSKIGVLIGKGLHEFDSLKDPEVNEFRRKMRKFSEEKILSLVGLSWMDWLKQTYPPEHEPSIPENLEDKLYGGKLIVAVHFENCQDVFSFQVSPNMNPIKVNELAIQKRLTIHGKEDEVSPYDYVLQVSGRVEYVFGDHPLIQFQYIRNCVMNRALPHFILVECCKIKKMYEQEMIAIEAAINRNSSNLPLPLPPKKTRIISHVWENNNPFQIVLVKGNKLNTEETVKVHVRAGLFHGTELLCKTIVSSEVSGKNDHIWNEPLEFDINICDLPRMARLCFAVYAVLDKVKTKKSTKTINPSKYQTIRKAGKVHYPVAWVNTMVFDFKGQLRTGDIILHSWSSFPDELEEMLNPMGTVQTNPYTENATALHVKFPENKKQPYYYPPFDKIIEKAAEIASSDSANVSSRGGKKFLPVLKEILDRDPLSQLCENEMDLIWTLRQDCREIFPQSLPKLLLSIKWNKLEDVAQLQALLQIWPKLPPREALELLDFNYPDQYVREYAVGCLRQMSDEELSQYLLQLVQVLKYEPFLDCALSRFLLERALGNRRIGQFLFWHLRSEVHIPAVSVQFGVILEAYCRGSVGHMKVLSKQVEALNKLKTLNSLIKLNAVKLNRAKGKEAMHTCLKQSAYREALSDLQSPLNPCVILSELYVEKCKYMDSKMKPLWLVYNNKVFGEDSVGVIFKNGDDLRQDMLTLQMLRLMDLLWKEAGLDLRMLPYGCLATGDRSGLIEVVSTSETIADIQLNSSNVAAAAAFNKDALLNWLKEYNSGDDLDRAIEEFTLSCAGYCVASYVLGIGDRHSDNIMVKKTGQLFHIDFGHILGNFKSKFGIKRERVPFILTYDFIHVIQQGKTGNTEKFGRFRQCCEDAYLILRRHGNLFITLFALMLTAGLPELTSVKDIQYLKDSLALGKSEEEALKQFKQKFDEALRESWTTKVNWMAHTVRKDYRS

Sample 1 — sample: hydrocarbon/water; pH: 7.4
With `CC(C)C[C@@H]1NC(=O)CN(CCCOC(C)C)C(=O)[C@H](C)NC(=O)[C@H](CC(C)C)N(C)C(=O)[C@H]2CCCN2C(=O)[C@H](C)NC(=O)CN(CC2CCOCC2)C(=O)[C@H](C)NC(=O)[C@H](CC(C)C)N(C)C(=O)[C@H]2CCCN2C1=O` the logD was -0.151.
`CC(C)C[C@@H]1NC(=O)[C@H](Cc2ccc(O)cc2)NC(=O)[C@H]2CCCN2C(=O)[C@H](CC2CCCCC2)NC(=O)[C@H](CC2CCCCC2)NC(=O)[C@@H](CC(C)C)NC1=O` gave a logD of 1.16.
For `CC(C)C[C@@H]1NC(=O)[C@H](Cc2ccc(O)cc2)NC(=O)[C@H]2CCCN2C(=O)[C@H](CC(C)C)NC(=O)[C@H](CC2CCCCC2)NC(=O)[C@@H](CC(C)C)NC1=O`, the logD was 0.0932.
With `CCN1CC(=O)N[C@@H](CC(C)C)C(=O)N2CCC[C@@H]2C(=O)N(C)[C@@H](CC(C)C)C(=O)N[C@@H](C)C(=O)N(CC2CCOCC2)CC(=O)N[C@@H](Cc2ccccc2)C(=O)N2CCC[C@@H]2C(=O)N(C)[C@@H](CC(C)C)C(=O)N[C@@H](C)C1=O` the logD was 0.737.
With `CCCCCN1CC(=O)NC(CC(C)C)C(=O)N(C)C(C)C(=O)NC(Cc2ccccc2)C(=O)N2CCCC2C(=O)N(Cc2ccc3c(c2)OCO3)CC(=O)NC(CC(C)C)C(=O)N(C)C(C)C(=O)NC(CC(C)C)C(=O)N2CCCC2C1=O` (stereo not shown) the logD was at least 3.4.
`CCCN1CC(=O)N[C@@H](CC(C)C)C(=O)N(C)[C@@H](C)C(=O)N[C@@H](CC(C)C)C(=O)N(C)Cc2cn(nn2)CC(=O)N[C@@H](CC(C)C)C(=O)N(C)[C@@H](C)C(=O)N[C@@H](CC(C)C)C(=O)N2CCC[C@@H]2C1=O` gave a logD of 0.145.
For `CC(C)C[C@@H]1NC(=O)[C@H](Cc2ccccc2)NC(=O)[C@H]2CCCN2C(=O)[C@H](CC(C)C)NC(=O)[C@H](CC2CCCCC2)NC(=O)[C@@H](CC(C)C)NC1=O`, the logD was 2.77.

Sample 2 — observed: enzyme activity; action: inhibitor; concentration: 0.5 µM; baseline: control
Target: MAP kinase-activated protein kinase 5 (MAPKAPK5, Homo sapiens, UniProt Q8IW41)
UniProt Q8IW41, sequence (whole entry, looked up): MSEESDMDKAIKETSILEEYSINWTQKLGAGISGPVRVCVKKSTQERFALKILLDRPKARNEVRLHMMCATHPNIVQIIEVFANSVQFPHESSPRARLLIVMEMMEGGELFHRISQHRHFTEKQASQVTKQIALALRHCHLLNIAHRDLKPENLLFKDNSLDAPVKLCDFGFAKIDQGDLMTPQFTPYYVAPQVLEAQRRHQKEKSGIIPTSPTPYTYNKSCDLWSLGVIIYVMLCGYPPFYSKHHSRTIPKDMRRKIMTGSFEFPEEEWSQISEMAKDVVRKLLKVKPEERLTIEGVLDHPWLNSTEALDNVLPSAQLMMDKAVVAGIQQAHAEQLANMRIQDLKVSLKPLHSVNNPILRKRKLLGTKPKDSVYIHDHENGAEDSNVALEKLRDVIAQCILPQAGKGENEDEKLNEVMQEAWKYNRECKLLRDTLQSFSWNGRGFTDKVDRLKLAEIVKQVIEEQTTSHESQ
`COc1ccc(S(=O)(=O)N(CCO)c2ccccc2CN(C)CC=Cc2ccc(Cl)cc2)cc1` gave a remaining activity of 100%.
`Cc1cncc2cccc(S(=O)(=O)N3CCCN(C(=O)CN)C[C@@H]3C)c12` has a remaining activity of 94.2%.
For `N#CC(=C(N)Sc1ccc(N)cc1)c1ccccc1C(F)(F)F`, the remaining activity was 89.9%.
`CC(C)(C)n1nc(Cc2cccc3ccccc23)c2c(N)ncnc21` gave a remaining activity of 95.7%.
For `Cc1cc(Nc2nc(-c3ccccc3)nc3ccccc23)n[nH]1`, the remaining activity was 93.2%.
With `Oc1ccc(Nc2nc(-c3ccc(Cl)cc3)cs2)cc1` the remaining activity was 96.8%.
The remaining activity of `Nc1ncnc2c1cnn2-c1ccccc1` is reported as 87.1%.
The remaining activity of `O=C1NC(=O)C(c2c[nH]c3ccccc23)=C1c1c[nH]c2ccccc12` is reported as 119%.
`O=S(=O)(NCCNC/C=C/c1ccc(Br)cc1)c1cccc2cnccc12` has a remaining activity of 90.2%.
The remaining activity of `CCc1[nH]c(-c2ccc(OC)cc2)nc1-c1ccncc1` is reported as 95.2%.
For `Nc1nc(Nc2ccc(S(N)(=O)=O)cc2)nn1C(=O)c1c(F)cccc1F`, the remaining activity was 80.3%.
`CSc1nc(-c2ccnc(N[C@@H](C)c3ccccc3)c2)c(-c2ccc(F)cc2)[nH]1` (racemic) has a remaining activity of 115%.
For `COc1cc(Nc2c(C#N)cnc3cc(OCCCN4CCN(C)CC4)c(OC)cc23)c(Cl)cc1Cl`, the remaining activity was 94.7%.
`NC(=O)c1ccc(N(C(N)=O)c2c(F)cccc2F)nc1-c1ccc(F)cc1F` has a remaining activity of 93.4%.
The remaining activity of `CC#CC(=O)Nc1cc2c(Nc3ccc(F)c(Cl)c3)ncnc2cn1` is reported as 96.3%.
The remaining activity of `CC[n+]1c(/C=C/N(C)c2ccccc2)n(-c2ccccc2)c2ccc(-c3nc4ccccc4s3)cc21` is reported as 96.8%.
`Fc1ccc(-c2nc3n(c2-c2ccncc2)CCS3)cc1` has a remaining activity of 97.2%.
`CCCC(=O)Oc1ccc2[nH]c(C(=O)c3cc4ccccc4[nH]3)cc2c1` gave a remaining activity of 101%.
`Nc1nccc(-c2c(-c3ccc(F)cc3)ncn2C2CCNCC2)n1` gave a remaining activity of 94%.
With `Cc1ccc(NC2=CC(=O)c3sc(C)nc3C2=O)cc1` the remaining activity was 108%.
The remaining activity of `CC(=O)c1ccc(N2CCOCC2)cc1O` is reported as 96.9%.
With `O=C1Cc2c([nH]c3ccc([N+](=O)[O-])cc23)-c2ccccc2N1` the remaining activity was 92.7%.

Sample 3 — cell line: mouse MPNST tumor cells; technique: high-content immunofluorescence imaging; refers to: nuclear SOX9; concentration: 10 µM; time: 12 h; notes: mean of 2 replicates; baseline: DMSO control; reading: higher = more nuclear SOX9
`O=c1cc(-c2ccc([N+](=O)[O-])cc2)nc2c(-c3ccc(Cl)cc3)c(Cc3ccccc3)[nH]n12`: “nuclear SOX9 intensity” 117 % of DMSO.
`O=C(O)c1ccc(C(=O)N[C@@H](c2ccc(OC(F)(F)F)c(F)c2)c2ncccc2F)nc1` — result for “nuclear SOX9 intensity”: 90 % of DMSO.
Under “nuclear SOX9 intensity”, `C/C(=C\C(=O)OCCCCCCCCC(=O)O)C[C@@H]1OC[C@H](C[C@@H]2O[C@H]2[C@@H](C)[C@H](C)O)[C@@H](O)[C@H]1O` is recorded as 109 % of DMSO.
`CCN1CCC[C@H]1CNC(=O)c1cc(S(N)(=O)=O)ccc1OC` — result for “nuclear SOX9 intensity”: 102 % of DMSO.
`CC(C)(O/N=C(\C(=O)N[C@@H]1C(=O)N2C(C(=O)[O-])=C(C[n+]3ccccc3)CS[C@H]12)c1csc(N)n1)C(=O)O`: “nuclear SOX9 intensity” 110 % of DMSO.
Under “nuclear SOX9 intensity”, `Fc1ccc(CNc2ncnc3ccc(F)cc23)cc1` is recorded as 124 % of DMSO.
Under “nuclear SOX9 intensity”, `O=C1CC2(CCCC2)CC(=O)N1CCCCN1CCN(c2ncccn2)CC1` is recorded as 116 % of DMSO and 111 % of DMSO.
`Cc1cc([N+](=O)[O-])ccc1NS(=O)(=O)c1cc(Cl)ccc1Cl`: “nuclear SOX9 intensity” 106 % of DMSO.
`c1ccc2c(c1)Cc1c(Nc3ccc4c(c3)OCCO4)n[nH]c1-2`: “nuclear SOX9 intensity” 169 % of DMSO.
`O=S(=O)(O)c1cc(O)ccc1O` — result for “nuclear SOX9 intensity”: 88.5 % of DMSO.
For `COc1cccc(OC)c1-c1cc(C(=O)NC(CC(C)C)C(=O)O)nn1-c1ccnc2cc(Cl)ccc12` (stereo not shown), “nuclear SOX9 intensity” read 101 % of DMSO.
Under “nuclear SOX9 intensity”, `COc1cc(OC)c(C(=O)CCCN2CCCC2)c(OC)c1` is recorded as 102 % of DMSO.

Sample 4 — observed: cell-free assay; technique: competition with immobilised ligand; concentration: 1 µM
SMILES: Cc1nccc(COC(=O)N2C[C@@H]3[C@@H](CNC(=O)c4ccc5[nH]nnc5c4)[C@@H]3C2)n1
It gave 66% for remaining binding (MAP4K3 (Homo sapiens, UniProt Q8IVH8)).
It gave 100% for remaining binding (FLT4 (Homo sapiens, UniProt P35916)).
The remaining binding was 80% (CDK4 (Homo sapiens, UniProt P11802)).
CSNK1G2 (Homo sapiens, UniProt P78368) — remaining binding: 96%.
For LIM domain kinase 1 (LIMK1, Homo sapiens, UniProt P53667): remaining binding read 100%.
Tyrosine-protein kinase ABL1, non-phosphorylated (ABL1, Homo sapiens, UniProt P00519, T315I) — remaining binding: 90%.
It gave 94% for remaining binding (MAPK4 (Homo sapiens, UniProt P31152)).
PLK3 (Homo sapiens, UniProt Q9H4B4) — remaining binding: 73%.
It gave 83% for remaining binding (PNCK (Homo sapiens, UniProt Q6P2M8)).
For Ribosomal protein S6 kinase alpha-5, C-terminal kinase domain (RPS6KA5, Homo sapiens, UniProt O75582): remaining binding read 74%.
For PKMYT1 (Homo sapiens, UniProt Q99640): remaining binding read 100%.
It gave 84% for remaining binding (BRAF (Homo sapiens, UniProt P15056)).
The remaining binding was 100% (EGFR (Homo sapiens, UniProt P00533, G719C)).
For SRPK3 (Homo sapiens, UniProt Q9UPE1): remaining binding read 100%.
The remaining binding was 84% (PIK3CB (Homo sapiens, UniProt P42338)).
The remaining binding was 98% (PRKACB (Homo sapiens, UniProt P22694)).
For RET (Homo sapiens, UniProt P07949, V804M): remaining binding read 100%.

For quick reference, copied from above (sample 2):
`CC(C)(C)n1nc(Cc2cccc3ccccc23)c2c(N)ncnc21` gave a remaining activity of 95.7%.
For `Cc1cc(Nc2nc(-c3ccccc3)nc3ccccc23)n[nH]1`, the remaining activity was 93.2%.
With `Oc1ccc(Nc2nc(-c3ccc(Cl)cc3)cs2)cc1` the remaining activity was 96.8%.
The remaining activity of `Nc1ncnc2c1cnn2-c1ccccc1` is reported as 87.1%.
